Experimental data gathered from unrelated publications.
A part holds a random share of what one study measured. “And” joins repeats or separate records; there may be more than shown. ± gives the spread as reported.

Study 1
Target: Replicase polyprotein 1ab, nsp13 helicase (rep, Severe acute respiratory syndrome coronavirus 2, UniProt P0DTD1)
Mode: inhibitor
Tested at: 20 µM
The inhibition of `O=Nc1c(-c2c(O)[nH]c3ccccc23)[nH]c2ccccc12` is reported as 4.6%.
With `O=[N+]([O-])c1ncc[nH]1` the inhibition was 17.9%.
For `CCc1c(C(=O)Nc2cc(S(=O)(=O)N(CC)CC)ccc2O)[nH]c(C)c1C(C)=O`, the inhibition was -8.78%.
For `CC(C)(CO)CCCCCCC(C)(C)CO`, the inhibition was -3.37%.
For `O=C(NC[C@H](O)CN1CCc2ccccc2C1)c1cc(NC2COC2)ncn1`, the inhibition was 2.46%.
The inhibition of `CC(C)(C)NCC(O)COc1cc(Cl)ccc1Cl` (stereo not drawn) is reported as 2.31%.
`COC(=O)CCSCc1ccc(-c2onc(C)c2NC(=O)OC(C)c2ccccc2Cl)cc1` (stereo not drawn) gave an inhibition of 0.2%.
`NC(=O)c1ccc(-c2nc(-c3ccccn3)c(-c3ccc4c(c3)OCO4)[nH]2)cc1` gave an inhibition of 13.5%.
`C[N+](C)(CF)CCO` has an inhibition of 5.56%.
With `CN(Cc1ccccc1)C(=O)[C@H](Cc1ccc2ccccc2c1)NC(=O)[C@@H]1C[C@@H](O)CN1C(=O)c1cn(C)c2ccccc12` the inhibition was 6.56%.
With `C#C[C@]1(O)CC[C@H]2[C@@H]3CCc4cc(O)ccc4[C@H]3CC[C@@]21C` the inhibition was 2.15%.
`CCOC(=O)C1=C(C)NC2=C(C(=O)CC(C)(C)C2)C1c1ccc(-c2ccccc2)cc1` (stereo not drawn) has an inhibition of -0.92%.
The inhibition of `Nc1ncnc2c1ncn2[C@@H]1O[C@H](CO)C[C@H]1O` is reported as 6.8%.
The inhibition of `C=C1CC[C@H](O)C/C1=C/C=C1\CCC[C@]2(C)[C@@H]([C@H](C)/C=C/[C@H](C)C(C)C)CC[C@@H]12` is reported as 15.2%.
`CCOc1ccc(NC(=S)N2CCC(C(O)(c3ccccc3)c3ccccc3)CC2)cc1` gave an inhibition of 9.64%.
The inhibition of `C=C(c1ccccc1OCc1cccc(Cl)c1)n1ccnc1` is reported as -1.07%.
For `COC(=O)[C@H](CC(C)C)NC(=O)c1ccc(NC[C@@H](N)CS)cc1-c1cccc2ccccc12`, the inhibition was 16.4%.
With `CC[C@H]1OC(=O)[C@@](C)(F)C(=O)[C@H](C)[C@@H](O[C@@H]2O[C@H](C)C[C@H](N(C)C)[C@H]2O)[C@](C)(OC)C[C@@H](C)C(=O)[C@H](C)[C@H]2N(CCCCn3cc(-c4cccc(N)c4)nn3)C(=O)O[C@]12C` the inhibition was 11%.
For `CC(C)C[C@H](NC(=O)OCC1c2ccccc2-c2ccccc21)C(=O)O`, the inhibition was -2.46% and 0.9%.
`c1ccc(-c2[nH]ncc2-c2ccnc3ccccc23)nc1` gave an inhibition of 0.19%.
The inhibition of `N=C(N)c1cc2ccc(OC(=O)c3cccs3)cc2s1` is reported as 7.6%.
`CCOC(=O)C(=O)Nc1cccc(OC)c1C(N)=O` has an inhibition of 6.87%.
With `COc1c(Nc2ccc(S(C)(=O)=O)nc2C)ncnc1OC1CCN(C(=O)OC(C)C)CC1` the inhibition was 1.09%.
The inhibition of `CN1C(C)(C)CCCC1(C)C` is reported as 5.51%.

Study 2
Cell line: HEK-293T
Read-out: pseudovirus infection
Technique: FDA-approved drug library screen
Organism: VSV pseudotyped with SARS-CoV-2 spike
Tested at: 10 µM
Time: 16 h
Reference: vehicle-treated
`O=c1cc[nH]c(=O)[nH]1` has a GFP-positive cells of 71.6%.
With `COc1ccc2c(c1)c(CC(=O)O)c(C)n2C(=O)c1ccc(Cl)cc1` the GFP-positive cells was 108%.
`COc1c(C)c2c(c(O)c1C/C=C(\C)CCC(=O)OCCN1CCOCC1)C(=O)OC2` has a GFP-positive cells of 3.41%.

Study 3
Target: Replicase polyprotein 1ab, main protease (rep, Severe acute respiratory syndrome coronavirus 2, UniProt P0DTD1)
Read-out: enzyme activity
Mode: inhibitor
Notes: no DTT
The IC50 of `CCN(CC)c1ccc(C(=C2C=CC(=[N+](CC)CC)C=C2)c2ccccc2)cc1` is reported as 11.6 µM.
For `NC[C@H](O)c1ccc(O)c(O)c1`, the IC50 was greater than 20 µM.
With `O=[N+]([O-])c1ccc(O)c2ncccc12` the IC50 was greater than 20 µM.

Study 4
Cell line: mouse MPNST tumor cells
Technique: high-content immunofluorescence imaging
Refers to: nuclear SOX9
Tested at: 10 µM
Time: 12 h
Notes: mean of 2 replicates
Reference: DMSO control
Direction: higher = more nuclear SOX9
`COc1cc2c(cc1OC)C1CC(=O)C(CC(C)C)CN1CC2` (stereo not drawn) — result for “nuclear SOX9 intensity”: 112 % of DMSO and 84.7 % of DMSO.
For `N#CC(=Cc1ccc(O)cc1)C(=O)O`, “nuclear SOX9 intensity” read 103 % of DMSO.
For `CC(C)[C@]12O[C@H]1[C@@H]1O[C@]13[C@]1(O[C@H]1C[C@H]1C4=C(CC[C@@]13C)C(=O)OC4)[C@@H]2O`, “nuclear SOX9 intensity” read 92.9 % of DMSO.

Mixed results
Spike glycoprotein: Spike glycoprotein (Severe acute respiratory syndrome coronavirus 2, UniProt P0DTC2)
CAMK2A: Calcium/calmodulin-dependent protein kinase type II subunit alpha (CAMK2A, Homo sapiens, UniProt Q9UQM7)
Chain of UniProt Q9UQM7 (whole entry, looked up): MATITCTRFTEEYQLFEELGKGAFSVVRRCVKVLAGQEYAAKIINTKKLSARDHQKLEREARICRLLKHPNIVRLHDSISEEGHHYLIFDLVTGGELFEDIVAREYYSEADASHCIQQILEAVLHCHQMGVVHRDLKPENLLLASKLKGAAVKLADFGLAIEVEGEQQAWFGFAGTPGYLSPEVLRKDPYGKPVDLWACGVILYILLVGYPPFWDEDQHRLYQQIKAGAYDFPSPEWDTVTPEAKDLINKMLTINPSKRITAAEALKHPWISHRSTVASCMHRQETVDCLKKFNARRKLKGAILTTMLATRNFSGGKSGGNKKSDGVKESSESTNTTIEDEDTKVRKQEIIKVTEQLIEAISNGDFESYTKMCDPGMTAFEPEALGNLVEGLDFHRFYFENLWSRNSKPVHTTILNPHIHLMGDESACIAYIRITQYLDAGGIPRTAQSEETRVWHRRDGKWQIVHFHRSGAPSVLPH
rep papain-like protease: Replicase polyprotein 1ab, papain-like protease (rep, Middle East respiratory syndrome-related coronavirus, UniProt K9N7C7)
rep main protease: Replicase polyprotein 1ab, main protease (rep, Severe acute respiratory syndrome coronavirus 2, UniProt P0DTD1)
For `O=C1C[C@@H]2OCC=C3CN4CC[C@]56c7ccccc7N1[C@H]5[C@H]2[C@H]3C[C@H]46`, the parasite load was 83.6% (Plasmodium berghei; Huh-7, liver stage; 10 µM, 24 h; reference: control).
For `O=c1cc(-c2ccc(O)c(O)c2)oc2cc(O)cc(O)c12`, the Kd was 97 µM (Spike glycoprotein; binding, biolayer interferometry).
With `Cc1cn([C@H]2C[C@H](N=[N+]=[N-])[C@@H](COP(=O)(O)OP(=O)(O)OP(=O)(O)O)O2)c(=O)[nH]c1=O` the fold resistance was 3 fold (Gag-Pol polyprotein, reverse transcriptase (gag-pol, Human immunodeficiency virus type 1 group M subtype B, UniProt P04585, K653N); reverse transcriptase activity, inhibitor; HIV-1; reference: K66N mutant over wild type).
`CN[C@@H](Cc1c[nH]c2ccccc12)C(=O)O` has an inhibition of -19% (CAMK2A; enzyme activity, inhibitor; 10 µM).
`CCC(C(=O)Nc1cc(NC2CCOCC2)ccc1C)n1cc(Cl)cc2nc(SCc3ccc(F)cc3)nc1-2` (stereo not drawn) gave an IC50 of greater than 100 µM (rep papain-like protease; enzyme activity, inhibitor).
`Cn1c(C(=O)Nc2ccc3c(c2)OCCO3)cc2c(=O)n3ccccc3nc21` has an EC50 of 0.052 µM (SARS-CoV-2; viral replication; Vero E6).
For `N=C(N)Nc1ccc(C(=O)Oc2ccc3cc(C(=N)N)ccc3c2)cc1`, IC50 read “no inhibition” (Spike glycoprotein, RBD; with ACE2 (Severe acute respiratory syndrome coronavirus 2, UniProt P0DTC2); binding, inhibitor).
With `Oc1cc(O)c2c(c1)O[C@H](c1cc(O)c(O)c(O)c1)[C@H](O)C2` the Kd was 63.1 µM (Spike glycoprotein; binding, biolayer interferometry).
For `C=C[C@@H]1C[C@]1(NC(=O)[C@@H]1C[C@@H]2CN1C(=O)[C@H](C(C)(C)C)NC(=O)O[C@@H]1C[C@H]1CCCCCc1nc3ccc(OC)cc3nc1O2)C(=O)NS(=O)(=O)C1CC1`, the IC50 was 10.8 µM (SARS-CoV-2; viral replication, immunofluorescence, refers to: nucleoprotein; Vero E6).
With `CC1=C2CC(C(=O)N[C@@H]3CN(C(=O)c4ccc5ccnn5c4)Cc4nccn4C3)=CN=C2NN1` the inhibition was 11.9% (rep main protease; enzyme activity, inhibitor; 5 µM, run 1).
The IC50 of `CCC(C(=O)Nc1cc(NC2COC2)ccc1C)n1cc(Br)cc2nc(SCc3ccc(F)cc3)nc1-2` (stereo not drawn) is reported as greater than 100 µM (rep papain-like protease; enzyme activity, inhibitor).
The Km of `Nc1ccn([C@H]2C[C@H](O)[C@@H](COP(=O)(O)OP(=O)(O)OP(=O)(O)O)O2)c(=O)n1` is reported as 213 ± 117 µM (Gag-Pol polyprotein, reverse transcriptase (gag-pol, Human immunodeficiency virus type 1 group M subtype B, UniProt P04585, K653R); nucleotide misinsertion, steady-state kinetics; K66R mutant RT, together with: opposite template T).
With `N#CCc1ccc(O)cc1` the inhibition was -42% (CAMK2A; enzyme activity, inhibitor; 10 µM).
For `Cc1ncc(/C=C\C(=O)N2C[C@@H](NC(=O)c3ccc[nH]c3=O)CC3(CCOCC3)C2)c(=O)[nH]1`, the inhibition was 15.7% (rep main protease; enzyme activity; 5 µM, mean of runs).
`COc1cc(C2C(C#N)=C(N)Oc3c2c(C)nn3-c2ccc(Cl)cc2)cc(OC)c1OC` (stereo not drawn) gave an inhibition of 77.7% (SARS-CoV-2; viral replication; Vero; 10 µM).

Some of these lines once more (mixed results):
For `N=C(N)Nc1ccc(C(=O)Oc2ccc3cc(C(=N)N)ccc3c2)cc1`, IC50 read “no inhibition” (Spike glycoprotein, RBD; with ACE2 (Severe acute respiratory syndrome coronavirus 2, UniProt P0DTC2); binding, inhibitor).
With `Oc1cc(O)c2c(c1)O[C@H](c1cc(O)c(O)c(O)c1)[C@H](O)C2` the Kd was 63.1 µM (Spike glycoprotein; binding, biolayer interferometry).
`COc1cc(C2C(C#N)=C(N)Oc3c2c(C)nn3-c2ccc(Cl)cc2)cc(OC)c1OC` (stereo not drawn) gave an inhibition of 77.7% (SARS-CoV-2; viral replication; Vero; 10 µM).
`Cn1c(C(=O)Nc2ccc3c(c2)OCCO3)cc2c(=O)n3ccccc3nc21` has an EC50 of 0.052 µM (SARS-CoV-2; viral replication; Vero E6).
With `Cc1cn([C@H]2C[C@H](N=[N+]=[N-])[C@@H](COP(=O)(O)OP(=O)(O)OP(=O)(O)O)O2)c(=O)[nH]c1=O` the fold resistance was 3 fold (Gag-Pol polyprotein, reverse transcriptase (gag-pol, Human immunodeficiency virus type 1 group M subtype B, UniProt P04585, K653N); reverse transcriptase activity, inhibitor; HIV-1; reference: K66N mutant over wild type).
